Experimental data pooled from the literature.

CC[C@H](C)[C@H](NC(=O)[C@H](CC(C)C)NC(=O)[C@H](Cc1c[nH]c2ccccc12)NC(=O)[C@H](CCC(N)=O)NC(=O)[C@@H](NC(=O)[C@H](Cc1ccccc1)NC(=O)[C@H](C)NC(=O)[C@H](CCCCNC(=O)COCCOCCNC(=O)COCCOCCNC(=O)CC[C@H](NC(=O)CCCCCCCCCCCCCCCCCCC(=O)O)C(=O)O)NC(=O)[C@H](CCC(N)=O)NC(=O)[C@H](C)NC(=O)[C@@H](NC(=O)[C@H](CCCCN)NC(=O)[C@H](CC(=O)O)NC(=O)[C@H](CC(C)C)NC(=O)C(C)(C)NC(=O)[C@@H](NC(=O)[C@H](CO)NC(=O)[C@H](Cc1ccc(O)cc1)NC(=O)[C@H](CC(=O)O)NC(=O)[C@H](CO)NC(=O)[C@@H](NC(=O)[C@H](Cc1ccccc1)NC(=O)[C@@H](NC(=O)CNC(=O)[C@H](CCC(=O)O)NC(=O)C(C)(C)NC(=O)[C@@H](N)Cc1ccc(O)cc1)[C@@H](C)O)[C@@H](C)O)[C@@H](C)CC)[C@@H](C)CC)C(C)C)C(=O)N[C@@H](C)C(=O)NCC(=O)NCC(=O)N1CCC[C@H]1C(=O)N[C@@H](CO)C(=O)N[C@@H](CO)C(=O)NCC(=O)N[C@@H](C)C(=O)N1CCC[C@H]1C(=O)N1CCC[C@H]1C(=O)N1CCC[C@H]1C(=O)N[C@@H](CO)C(N)=O gave an AUC(0-tau) of 10600 ng·h/mL (human, plasma; 0.5 mg, day 22, tau 168 h, multiple ascending dose, geometric mean).
`FPRGQGVPI` — result for “frequency of responding donors”: 33 (AIM; peptide, CD8+ T cells from PBMC, human donors; HLA-B*07:02 restricted, unit not given; reference: positive over tested donors).
CCOC(=O)c1ccc(OC(=O)CCCCCN=C(N)N)cc1.CS(=O)(=O)O gave an inhibition of 0.692% (Replicase polyprotein 1ab, main protease (rep, Severe acute respiratory syndrome coronavirus 2, UniProt P0DTD1); reporter gene (Gaussia luciferase), inhibitor; 20 µM).
`VTPSGTWLTY` — result for “frequency of responding donors”: 100 (AIM; peptide, CD8+ T cells from PBMC, human donors; HLA-A*30:02 restricted, unit not given; reference: positive over tested donors).
For Nc1ncnc2c([C@@H]3N[C@H](CO)[C@@H](O)[C@H]3O)c[nH]c12, the inhibition was 0% (Japanese encephalitis virus; viral replication, inhibitor; Vero 76; 0.3 µM).

Some of these lines once more:
CCOC(=O)c1ccc(OC(=O)CCCCCN=C(N)N)cc1.CS(=O)(=O)O gave an inhibition of 0.692% (Replicase polyprotein 1ab, main protease (rep, Severe acute respiratory syndrome coronavirus 2, UniProt P0DTD1); reporter gene (Gaussia luciferase), inhibitor; 20 µM).
